Measured values gathered from unrelated publications.
Lines come from different studies, so protocols differ. Numbers after ± are the reported error.

| Compound | system | conditions | scale | quantity | value |
| --- | --- | --- | --- | --- | --- |
| CCOc1ccc(Cc2cc([C@]34OC[C@](CO)(O3)[C@@H](O)[C@H](O)[C@H]4O)ccc2Cl)cc1 | human, type 2 diabetes, severe renal impairment | oral, 15 mg |  | renal clearance | 0.54 mL/min |
| CC[C@@H]1CN(C(=O)NCC(F)(F)F)C[C@@H]1c1cnc2cnc3[nH]ccc3n12 | human, mild renal impairment, urine and plasma | oral, 15 mg single dose, extended release, fasted, geometric mean |  | renal clearance | 52.5 mL/min |
| CC(C)(Sc1ccncc1-c1ccc(C#N)c2ccccc12)C(=O)O | humans, male, normal renal function | oral, 15 mg |  | renal clearance (0-72 h) | 13.5 mL/min |
| O=c1[nH]c(=O)c2c[nH]nc2[nH]1 | human, male, urine and plasma | oral, 10 mg, together with: allopurinol 300 mg | relative to: combination over alone | renal clearance ratio | 193% |
| C[C@@H]1CCC[C@H](n2cnc(-c3cc(Cl)ccc3-n3cc(Cl)nn3)cc2=O)c2cc(ccn2)-c2c(cnn2C(F)F)NC1=O | human, moderate renal impairment, plasma and urine | oral, 60 mg single dose |  | renal clearance | 15.2 mL/min |
| COc1cc(C(=O)NC2CCN(C)CC2)c(F)cc1Nc1ncc(C(F)(F)F)c(Oc2cccc3c2C(=O)N(C)C3)n1 | human patients, plasma and urine | oral, 200 mg once daily, 0-24 h, steady state, cycle 1 |  | renal clearance | 13.7 mL/min |
| CC(C)(C)OC[C@@H]1C(=O)NCCN1C(=O)C[C@H](N)Cc1cc(F)c(F)cc1F | human | 5 mg once daily, day 10 |  | renal clearance at steady state | 282 ± 80 mL/min |
| O=C(c1cccnc1-c1ccncc1)N1CCC(O)(Cc2ccccc2)CC1 | healthy human, urine | oral, 100 mg once daily, day 14, arithmetic mean |  | renal clearance | 3.33 mL/min |
| COC(=O)c1ccc2c(c1)NC(=O)/C2=C(\Nc1ccc(N(C)C(=O)CN2CCN(C)CC2)cc1)c1ccccc1 | healthy human controls matched to Child-Pugh A, urine and plasma | oral, 100 mg single dose, geometric mean |  | renal clearance (0-72 h) | 17.2 mL/min |

Excerpt of the above:
| Compound | system | conditions | scale | quantity | value |
| --- | --- | --- | --- | --- | --- |
| COC(=O)c1ccc2c(c1)NC(=O)/C2=C(\Nc1ccc(N(C)C(=O)CN2CCN(C)CC2)cc1)c1ccccc1 | healthy human controls matched to Child-Pugh A, urine and plasma | oral, 100 mg single dose, geometric mean |  | renal clearance (0-72 h) | 17.2 mL/min |
